{"data": "Results collected from several papers", "note": "Every numbered part comes from another study and shows a few of its results, in no order."}
{"data": "Series 1", "target": "Histone acetyltransferase KAT6A, winged helix 2, GST fusion (KAT6A, Homo sapiens, UniProt Q92794, residues 85-181)", "method": "protein binding microarray", "molecule type": "double-stranded DNA, one strand shown", "medium": "in vitro", "concentration": "not given", "notes": "8-mer, flanks averaged, mean of 2 arrays, mostly near background", "relative to": "not given", "direction": "higher = stronger binding", "Target sequence (chain)": "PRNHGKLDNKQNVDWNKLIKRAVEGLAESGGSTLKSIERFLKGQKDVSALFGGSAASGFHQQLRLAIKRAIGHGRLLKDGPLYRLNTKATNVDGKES"}
{"Strand": "AACGCATC", "E-score": -0.0537}
{"Strand": "GCCATAGA", "E-score": -0.103}
{"Strand": "CTCTGGCA", "E-score": -0.0986}
{"Strand": "GCAGTGAC", "E-score": 0.0992}
{"Strand": "ATCGGGCG", "E-score": 0.113}
{"Strand": "GTACGTTA", "E-score": -0.165}
{"Strand": "CTGCCGAA", "E-score": 0.144}
{"Strand": "AGAACGTG", "E-score": -0.0965}
{"Strand": "ATTTTAGA", "E-score": -0.142}
{"Strand": "GGGCTCAA", "E-score": -0.153}
{"Strand": "CGGTGGGA", "E-score": 0.00507}
{"Strand": "AAACGCGT", "E-score": -0.104}
{"Strand": "CATTATGG", "E-score": -0.08}
{"Strand": "ACATCGGT", "E-score": -0.148}
{"Strand": "AGATGTCG", "E-score": -0.0727}
{"Strand": "CACTGCGG", "E-score": 0.219}
{"Strand": "ACGATCAT", "E-score": -0.14}
{"Strand": "ATAGTTAA", "E-score": -0.0625}
{"Strand": "ACAGGGGC", "E-score": -0.00619}
{"Strand": "ACGATTAA", "E-score": -0.00185}
{"data": "Series 2", "target": "Ras GTPase-activating protein-binding protein 1, RRM domain (G3BP1, Homo sapiens, UniProt Q13283)", "method": "RNA Bind-n-Seq", "molecule type": "RNA", "medium": "in vitro", "concentration": "1 µM", "notes": "whole 134-nt RNA, ends assumed", "together with": "150 mM KCl", "relative to": "input library", "direction": "higher = stronger binding", "all sequences stand within": "GGGAGUUCUACAGUCCGACGAUC … UGGAAUUCUCGGGUGUCAAGG", "sequence of UniProt Q13283 (whole entry, looked up)": "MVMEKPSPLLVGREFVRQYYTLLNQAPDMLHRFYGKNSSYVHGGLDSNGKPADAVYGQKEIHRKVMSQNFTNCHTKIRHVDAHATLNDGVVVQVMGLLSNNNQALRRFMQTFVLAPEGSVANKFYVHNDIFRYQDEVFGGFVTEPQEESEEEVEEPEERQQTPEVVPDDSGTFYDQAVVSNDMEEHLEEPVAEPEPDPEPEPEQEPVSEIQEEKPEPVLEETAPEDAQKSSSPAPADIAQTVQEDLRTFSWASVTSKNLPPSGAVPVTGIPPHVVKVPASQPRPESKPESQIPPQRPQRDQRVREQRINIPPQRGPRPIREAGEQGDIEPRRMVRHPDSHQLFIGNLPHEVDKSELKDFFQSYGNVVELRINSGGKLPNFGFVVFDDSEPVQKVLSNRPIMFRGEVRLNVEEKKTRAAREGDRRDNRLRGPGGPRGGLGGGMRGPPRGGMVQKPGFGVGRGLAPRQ"}
{"Strand": "CCUGUGCUACACAUCGUAUGUACCGAAUCGGGGAGGGGAAAAAAAGGGGAAAAAAAGGGGAAAGUAUUAUGUUACGCCGUUCGGAUCUGC", "log2 enrichment": 0.388}
{"Strand": "UGGGAGGUGGAUUUAGUUUAUUUUUUUAGCUCAUUUCCAGGGGUGGGAAUUUUUUUUUAAUAUGUGUCAUGAAUAAAGUUGUUUUUGAAA", "log2 enrichment": 1.57}
{"Strand": "GCAGGAAGUAAAAACAAAUGGAAAUGCUUCGGAUAGUGGCAGGGGUGGGGGUUGCUAAGGAAAGGGUGGGAUGGGAGUGGGUAAAGAGUA", "log2 enrichment": 1.39}
{"Strand": "ACCAUGCAGGUGGGCAUCUUUGGGAAGUGGGGCAAGGAAAGGAUAGGGAGGGGGGUAACACUUUGGGAACAGGUGGUCCCAGGUCGUUUC", "log2 enrichment": -0.336}
{"Strand": "CAAGUCCUGUGCUACACAUCGUAUGUACCGAAUCGGUUUUUGGUUUUUGGAAAGGAAAGUAUUAUGUUACGCCGUUCGGAUCUGCACUUC", "log2 enrichment": -0.2}
{"Strand": "CACAGACAACACGCACCCACACAGACACAGAGGGAAGGGGUUGGGAUGGGGACAGGGUGCACAGCAGGGCGGGGUAGGAGCCCAGCCCCU", "log2 enrichment": -0.442}
{"Strand": "UCCUGUGCUACACAUCGUAUGUACCGAAUCGGGGAAAAAGGGGUUUGGGGAAAAAGGGGAAAGUAUUAUGUUACGCCGUUCGGAUCUGCA", "log2 enrichment": 0.985}
{"Strand": "UGGGAGGUGGAUUUUGUUUAUUUUUUUUGCUCAUUUCCAGGGGUGGGAAUUUUUUUUUAAUAUGUGUCAUGAAUAAAGUUGUUUUUGAAA", "log2 enrichment": 1.6}
{"Strand": "ACCAUGCAGGUGGGCAUCUUUGGGAAGUGGGGCAAGGGGGGGAUAGGGAGGGGGGUAACACUUUGGGAGCAGGUGGUCCCAGGUCGUUUC", "log2 enrichment": 0.827}
{"data": "Series 3", "target": "Sal-like protein 4, full length isoform B (SALL4, Homo sapiens, UniProt Q9UJQ4-2, residues 1-616)", "method": "universal PBM", "molecule type": "double-stranded DNA, one strand shown", "medium": "in vitro", "concentration": "not given", "notes": "8-mer, flanks averaged, mean of replicates", "direction": "higher = stronger binding"}
{"Strand": "ACATGGGG", "E-score": -0.296}
{"Strand": "CACCTGCG", "E-score": -0.26}
{"Strand": "CAACTGTA", "E-score": 0.206}
{"Strand": "CGAATTGA", "E-score": -0.0613}
{"Strand": "ACGACCCA", "E-score": -0.105}
{"Strand": "AGCCCATC", "E-score": -0.212}
{"Strand": "CGGCACAG", "E-score": -0.178}
{"Strand": "CGCATGTA", "E-score": 0.0507}
{"Strand": "CTGCAAGC", "E-score": -0.22}
{"Strand": "GAAGATTA", "E-score": 0.229}
{"Strand": "CAACTCTC", "E-score": -0.105}
{"Strand": "ATGGGGCC", "E-score": -0.254}
{"Strand": "AGAGAAGC", "E-score": -0.171}
{"Strand": "TATGGGAA", "E-score": 0.178}
{"Strand": "TATCTACA", "E-score": 0.165}
{"data": "Other studies, line by line"}
{"Substance": "PhoQ, residues 284 288 289 292 302 303 SSTMSV", "target": "PhoP, residues 12 14 15 18 19 QWHVF (Escherichia coli, UniProt P23836)", "test": "Sort-seq, item: YFP reporter", "test system": "E. coli", "conditions": "PhoQ-PhoP variant library, together with: 10 µM Mg2+", "scale": "relative to: high Mg2+ state, higher = stronger signaling", "measurement": "fold induction", "value": 2.18}
